Published values collected from several papers.
Values joined by “and” are separate records of one study, mostly repeats; a detail may differ. ± gives the spread as reported.
Chain of UniProt P51575 (whole entry, unmodified, looked up): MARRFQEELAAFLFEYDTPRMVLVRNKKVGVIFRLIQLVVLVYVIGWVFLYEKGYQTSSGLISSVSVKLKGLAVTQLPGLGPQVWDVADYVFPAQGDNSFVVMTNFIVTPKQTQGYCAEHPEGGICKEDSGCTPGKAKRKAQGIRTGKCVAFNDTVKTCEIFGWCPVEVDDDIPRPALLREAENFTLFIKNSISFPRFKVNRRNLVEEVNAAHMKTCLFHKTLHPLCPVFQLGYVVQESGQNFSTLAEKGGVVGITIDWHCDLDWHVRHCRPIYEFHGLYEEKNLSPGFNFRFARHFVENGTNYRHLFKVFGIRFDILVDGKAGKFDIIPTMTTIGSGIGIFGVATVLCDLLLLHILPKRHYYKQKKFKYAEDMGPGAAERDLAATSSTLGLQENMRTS

| Structure (SMILES) | tested on | test | system | setting | how to read | quantity | value |
| --- | --- | --- | --- | --- | --- | --- | --- |
| CC1=C(Cn2ccnn2)C(=O)c2ccccc2C1=O | Schistosoma mansoni | – | adult worms | 10 µM, 48 h | – | killing | 42.8% |
| COc1cnc2cccc(N3CCc4c(cc(Cn5ccnc5C)cc4-c4cn(C)nc4C(F)(F)F)C3=O)c2c1 | SUIT-2 | cell growth, inhibitor | – | 120 h | – | EC50 | 5210 nM |
| C[C@H]1Oc2cc(cnc2N)-c2c(nn(C)c2C#N)CN(C)C(=O)c2ccc(F)cc21 | HD-MB03 | – | – | 168 h | – | IC50 | inactive |
| O=C(Nc1nc2cccc(-c3ccc(CN4CCS(=O)(=O)CC4)cc3)n2n1)C1CC1 | – | measured: gingival bleeding | human rheumatoid arthritis patients | oral, 30 mg once daily, 4 weeks, regardless of relatedness | – | treatment-emergent adverse events | 0% |
| Oc1ccc(/C=C/c2cc(O)cc(O)c2)cc1 | Nedd8-cullin1 interaction | neddylation, AlphaScreen | – | 100 µM | – | inhibition | 16.4% |
| CC(C)NCC(O)c1ccc(O)c(O)c1 (stereo not shown) | mouse ventricular cardiomyocytes | – | – | dose not given, 0.215 s | – | sarcomere length | 1.77 µm |
| COC(=O)[C@]12CCC(C)(C)C[C@H]1[C@H]1C(=O)C=C3[C@@]4(C)C=C(C#N)C(=O)C(C)(C)[C@@H]4CC[C@@]3(C)[C@]1(C)CC2 | HepG2 | high content imaging, measured: nuclear size | – | 24 h, distribution mode 2 | – | point of departure | 3.31 µM |
| CCC(C)(C)C(=O)O[C@H]1C[C@@H](C)C=C2C=C[C@H](C)[C@H](CC[C@@H]3C[C@@H](O)CC(=O)O3)[C@H]21.[Ca] | Nedd8-cullin1 interaction | neddylation, AlphaScreen | – | 100 µM | – | inhibition | -14.3% |
| Nc1ncnc2c1ncn2[C@@H]1O[C@H](COP(=O)(O)CP(=O)(O)OP(=O)(O)O)[C@@H](O)[C@H]1O | P2X purinoceptor 1 (P2RX1, Homo sapiens, UniProt P51575, R139A) | saturation binding | HEK293 | 13 nM | – | specific binding | 814 CCPM and 608 CCPM |
| CC1=C(Cc2cn(Cc3ccccc3)nn2)C(=O)c2ccccc2C1=O | Schistosoma mansoni | – | adult worms | 25 µM, 24 h | – | killing | 54% |
| Cn1cc(-c2ccc(-c3cncc(Cl)c3N3CCC4(CCNC4=O)CC3)cc2)cn1 | COLO 205 | gene expression, microarray, measured: TLR3 mRNA | – | concentration not given, 2 h | reference: untreated cells | log2 fold change | 2.39 |
| O=C(O)CC[C@H](NC(=O)N[C@@H](CCCCNC(=O)[C@H](Cc1ccc2ccccc2c1)NC(=O)CCCCCNC(=O)CN1CCN(CC(=O)O)CCN(CC(=O)O)CCN(CC(=O)O)CC1)C(=O)O)C(=O)O [gallium-68 labelled] | – | PET/CT | mouse, 22Rv1 xenograft, muscle | intravenous, 3.7 MBq, 2 h | – | SUVmean | 0.18 ± 0.01 SUV |
| CCn1cc(-c2cc(Cn3ccoc3=N)cc3c2CCN([C@@H](C)c2cc(OC)ccn2)C3=O)c(C(F)(F)F)n1 | SUIT-2 | cell growth, inhibitor | – | 120 h | – | EC50 | 12600 nM |
| O=C(Nc1nnc2n3c(nc(-c4ccc(Cl)cc4)c1-2)SCC3=O)c1ccccc1 | SN12C | SRB | – | 10 µM, NCI60 single-dose screen | reference: untreated | cell growth | 96.6% |
| Cc1ccc(-c2cc(C(F)(F)F)nn2-c2ccc(S(N)(=O)=O)cc2)cc1 | RAW264.7 | ELISA | – | concentration not given, 24 h, added: LPS 100 ng/mL | – | PGE2 level | 120 pg/mL |
| CCc1cnc(N2CCC(c3nc(COc4ccc(-n5cnnn5)cc4)cs3)CC2)nc1 | HEK293T | RNA-seq, measured: CLU mRNA | – | 10 µM, 6 h | reference: vehicle | log2 fold change | 0.19 |
| Cc1cc(Nc2ncc(Cl)c(Nc3ccccc3S(=O)(=O)C(C)C)n2)c(OC(C)C)cc1C1CCNCC1 | CLB-GE | phosphoproteomics LC-MS/MS, measured: BAI2 phosphorylation | – | 200 nM, 60 min | reference: untreated | log2 fold change | -1.68 |
| C[C@H](Nc1ccc2c(c1)OCCn1cc(N3C(=O)OC[C@H]3C(F)F)nc1-2)C(N)=O | HGC-27 | growth rate inhibition, CellTiter-Glo | – | 120 h | – | IC50 | 219 nM |
| CC(=O)c1n[nH]c2ccc(-c3cnc4ccc(N(C)C5CCOCC5)nn34)cc12 | Fluc expressing cells | – | – | concentration not given, counter-screen | – | change in reporter signal | 19 ± 3% |
| Nc1ccn([C@@H]2O[C@H](CO)[C@@H](O)C2(F)F)c(=O)n1 | BXPC-3 | cell proliferation, CCK-8 | – | 4 d | reference: untreated | ED50 | 18.4 ± 1.3 nM |
| Cc1nc(Nc2n[nH]c3c2CN(C(=O)N[C@H](CN(C)C)c2ccccc2)C3(C)C)c2sccc2n1 | HD-MB03 | cell growth | – | DMSO | – | IC50 | 4.49 nM |
| COC(=O)C1CCN(C(=O)c2ccc(N(CCO)Cc3cnc4nc(N)nc(N)c4n3)cc2)CC1 | 786-O | high-content imaging, measured: MitoTracker Red uptake | – | 10 µM | – | mitochondrial toxicity | -0.37 ± 4.59% |
| CN(C)C(=O)c1cc2cnc(Nc3ccc(N4CCNCC4)cn3)nc2n1C1CCCC1 | HD-MB03 | cell growth | – | 168 h, DMSO | – | IC50 | 3570 nM |
| COc1cc2ncnc(Nc3ccc(Oc4ccccc4)c(C)c3C)c2cc1OC.Cl | SK-MEL-2 (NRAS Q61R) | resazurin | – | concentration not given, 72 h, added: trametinib | direction not given | Bliss synergy score | -174% |
| CCn1cc(-c2cc(Cn3ccnc3)cc3c2CCN([C@H](c2cc(OC)ccn2)C2CC2)C3=O)c(C(F)(F)F)n1 | TE-5 | cell growth, inhibitor | – | 120 h | – | EC50 | > 30000 nM |
| CCc1c(-c2ccccc2)c(-c2ccccc2)nn1-c1ccccc1-c1cccc(OCC(=O)O)c1 | mouse bone marrow macrophages | osteoclast differentiation, inhibitor, TRAP staining | – | 1 µM, added: M-CSF and RANKL | – | normalized response | 61.4% and 53.1% and 52.2% and 56.2% and 61.8% and 60.3% |
| CCOc1cc(C(C)(C)C)ccc1C1=N[C@@](C)(c2ccc(Cl)cc2)[C@@](C)(c2ccc(Cl)cc2)N1C(=O)N1CCN(CCCS(C)(=O)=O)CC1 | HD-MB03 | cell growth | – | 168 h, DMSO | – | IC50 | 793 nM |
| c1ccc2[nH]ccc2c1 | HCT-8 | RNA-seq, measured: PDK4 | – | concentration not given | – | mRNA level, LS mean | 5.5 counts per million |

A few entries again:
| Structure (SMILES) | tested on | test | system | setting | how to read | quantity | value |
| --- | --- | --- | --- | --- | --- | --- | --- |
| C[C@H]1Oc2cc(cnc2N)-c2c(nn(C)c2C#N)CN(C)C(=O)c2ccc(F)cc21 | HD-MB03 | – | – | 168 h | – | IC50 | inactive |
| O=C(Nc1nc2cccc(-c3ccc(CN4CCS(=O)(=O)CC4)cc3)n2n1)C1CC1 | – | measured: gingival bleeding | human rheumatoid arthritis patients | oral, 30 mg once daily, 4 weeks, regardless of relatedness | – | treatment-emergent adverse events | 0% |
